{"data": "Results gathered from unrelated publications", "note": "Protocols differ between the studies behind these lines. “And” joins repeats or separate records; there may be more than shown. Numbers after ± are the reported error."}
{"Structure (SMILES)": "CNCc1ccc(-c2[nH]c3cc(F)cc4c3c2CCNC4=O)cc1", "test system": "human patients", "setting": "oral, 840 mg twice daily, all grades", "measurement": "dyspnoea incidence", "value": "33.3%"}
{"Structure (SMILES)": "CC(F)(F)c1nc2nc(CO)cc(Nc3ccc(S(F)(F)(F)(F)F)cc3)n2n1", "assay": "LC-MS/MS", "test system": "malaria patients, plasma", "setting": "oral, 250 mg of parent drug", "measurement": "AUC(0-t), metabolite", "value": "108000 ng·h/mL"}
{"Structure (SMILES)": "CC1(C)CCC(CN2CCN(c3ccc(C(=O)NS(=O)(=O)c4ccc(NCC5CCOCC5)c([N+](=O)[O-])c4)c(Oc4cnc5[nH]ccc5c4)c3)CC2)=C(c2ccc(Cl)cc2)C1", "assay": "final population PK model", "test system": "AML patients", "measurement": "apparent clearance (CL/F)", "value": "452 L/day"}
{"Structure (SMILES)": "CCN(CC)Cc1ccc2cc(COC(=O)Nc3ccc(C(=O)NO)cc3)ccc2c1", "test system": "rat plasma", "setting": "5 ng/mL, 3 h, room temperature", "how to read": "relative to: nominal concentration", "measurement": "stability relative error", "value": "96.7%"}
{"Structure (SMILES)": "C=CC(=O)N(C)CCOc1c(N)ncnc1-c1cc(F)cc(NC(=O)c2ccc(C3CC3)cc2F)c1C", "test system": "human, whole blood", "setting": "oral, 600 mg once daily, day 1", "measurement": "AUC", "value": "1080 ng·h/mL"}
{"Structure (SMILES)": "CC(C)NCCCC[C@@H]1NC(=O)[C@H](Cc2ccc(O)cc2)NC(=O)[C@H](Cc2ccccc2)NC(=O)CC[C@H](C(=O)N[C@@H](CCCCNC(C)C)C(=O)N[C@@H](CCCCNC(=O)[C@H](CCC(=O)O)NC(=O)[C@H](CCC(=O)O)NC(=O)[C@H](CCC(=O)O)NC(=O)CN2CCN(CC(=O)O)CCN(CC(=O)O)CCN(CC(=O)O)CC2)C(N)=O)NC(=O)CNC(=O)[C@H](Cc2ccc3ccccc3c2)NC(=O)[C@@H](CCCNC(=N)N)NC1=O [gallium-68 labelled]", "test system": "mouse with Daudi xenograft, bone", "setting": "intravenous, 2 h", "measurement": "tissue uptake", "value": "0.09 %ID/g"}
{"Structure (SMILES)": "Cc1nc2cccc(OCC(C)(C)C(=O)NC(C)C)c2c(N)c1C(=O)O", "test system": "Sprague-Dawley rat, female, plasma", "setting": "oral, 30 mg/kg, day 7 over day 1, 7-day repeated dosing", "how to read": "relative to: day 7 over day 1", "measurement": "AUClast ratio", "value": "1.12 ± 0.26"}
{"Structure (SMILES)": "[18F]c1ccc(-c2ccc3c(c2)[nH]c2ccncc23)cn1", "assay": "ex vivo biodistribution", "test system": "B6SJL mouse, normal, blood", "setting": "intravenous, 30 min", "measurement": "SUV", "value": "0.289 ± 0.122"}
{"Structure (SMILES)": "Cc1ccc(Sc2ccccc2N2CCNCC2)c(C)c1", "assay": "refers to: feeling abnormal", "test system": "healthy adult women", "setting": "oral, 10 mg daily, 12 days", "measurement": "participants with TEAE", "value": "33.3%"}
{"Structure (SMILES)": "Cc1cc(NC2CCN(C(=O)OC3CCN(C(=O)/C=C/CN(C)C)C3)CC2)n2ncc(C(C)C)c2n1 (stereo not drawn)", "assay": "Phase I dose escalation CTCAE v4.0, refers to: abdominal pain", "test system": "patients with advanced solid tumours", "setting": "dose not given, QD dosing any grade", "measurement": "patients with adverse event", "value": "23%"}
{"Structure (SMILES)": "O=C(NO)[C@H]1CSC(c2ccc(OC(F)(F)F)c(Cl)c2)=N1", "test system": "aqueous buffer", "setting": "pH 7.4", "measurement": "thermodynamic solubility", "value": "< 10.7 µM"}
{"Structure (SMILES)": "Cc1ccc([C@@H]2O[C@H](CO)[C@@H](O)[C@H](O)[C@H]2O)cc1Cc1ccc(-c2ccc(F)cc2)s1", "test system": "Japanese type 2 diabetes patients", "setting": "400 mg, day 3, 24 h urine collection", "how to read": "relative to: baseline", "measurement": "urinary potassium excretion change", "value": "-3.38 mEq"}
{"Structure (SMILES)": "CN1C(=O)[C@@H](NC(=O)c2nnc(Cc3ccccc3)[nH]2)COc2cccnc21", "assay": "phase I single ascending dose", "test system": "human, male and female", "setting": "oral, 400 mg, fasted", "measurement": "medical device site reaction incidence", "value": "0%"}
{"Structure (SMILES)": "CCN1CCN(Cc2ccc(NC(=O)c3ccc(C)c(NC(=O)c4cncc(-c5cccs5)c4)c3)cc2C(F)(F)F)CC1", "assay": "LC-MS/MS", "test system": "C57BL/6 mouse, plasma", "setting": "intraperitoneal, 15 mg/kg single dose, 1 h", "measurement": "plasma concentration", "value": "808 ng/mL and 453 ng/mL and 484 ng/mL"}
{"Structure (SMILES)": "COc1cccc(OC)c1-c1cc(C(=O)NC2(C(=O)O)C3CC4CC(C3)CC2C4)nn1-c1ccc(C(=O)N(C)CCCN(C)CCCN(C)C(=O)CN2CCN(CC(=O)[O-])CCN(CC(=O)[O-])CCN(CC(=O)[O-])CC2)cc1C(C)C.[177Lu+3] (stereo not drawn)", "test system": "mouse, HT-29 xenograft", "setting": "4 h post injection, biodistribution", "how to read": "relative to: tumour over muscle uptake", "measurement": "tumour-to-muscle ratio", "value": 13.3}
{"Structure (SMILES)": "O=C(O)CCC(=O)O.[2H]C([2H])([2H])Oc1cc(C)c2[nH]ccc2c1CN1CC[C@@H](C2CC2)C[C@H]1c1ccc(C(=O)O)cc1", "assay": "ECG", "test system": "healthy Chinese subjects", "setting": "oral, 300 mg once daily, multiple ascending dose", "measurement": "TEAE T wave abnormality", "value": "0%"}
{"Structure (SMILES)": "N#Cc1ccc2c(c1)[C@H]1CCCN(C(=O)c3ccc4[nH]cnc4c3)[C@H]1C2", "test system": "human males", "setting": "40 mg, end of trial", "measurement": "DHEA-S level", "value": "4.1 µmol/L"}
{"Structure (SMILES)": "CCC[C@H]1CC[C@H](c2ccc(C#N)cc2)CC1", "test system": "Sprague-Dawley rat, female, fetus", "setting": "5000 ng/mL in perfusate, 50 (unit not given), high dose, mixture of 21 LCMs", "measurement": "median fetal accumulation", "value": "4.87 ng/g"}
{"Structure (SMILES)": "CNC(=O)c1ccc(-c2cnc3ncc(Cc4ccc5ncccc5c4)n3n2)cc1F", "assay": "refers to: Dyspepsia, all grades", "test system": "cancer patients", "setting": "oral, 600 mg twice daily, other expansion cohort, any causality", "measurement": "patients with adverse event", "value": "17%"}
{"Structure (SMILES)": "COc1ccc2c(c1)CN(C(=O)CCN1CCC(Cc3ccccc3)CC1)CC[S@@+]2[O-]", "assay": "telemetry", "test system": "conscious male beagle dogs", "setting": "intravenous, 2 mg/kg, 4 h", "measurement": "QTc interval", "value": "231 ± 11 ms"}
{"Structure (SMILES)": "O=C(O)c1cc(O)c(O)c(O)c1", "test system": "broiler chickens, serum", "setting": "oral, in feed, 2000 mg/kg feed, wheat diet, no tannins", "measurement": "AUC", "value": "1.35 ± 0.33 µM·h"}
{"note": "Excerpt of the above:"}
{"Structure (SMILES)": "N#Cc1ccc2c(c1)[C@H]1CCCN(C(=O)c3ccc4[nH]cnc4c3)[C@H]1C2", "test system": "human males", "setting": "40 mg, end of trial", "measurement": "DHEA-S level", "value": "4.1 µmol/L"}
{"Structure (SMILES)": "CCC[C@H]1CC[C@H](c2ccc(C#N)cc2)CC1", "test system": "Sprague-Dawley rat, female, fetus", "setting": "5000 ng/mL in perfusate, 50 (unit not given), high dose, mixture of 21 LCMs", "measurement": "median fetal accumulation", "value": "4.87 ng/g"}
{"Structure (SMILES)": "CNC(=O)c1ccc(-c2cnc3ncc(Cc4ccc5ncccc5c4)n3n2)cc1F", "assay": "refers to: Dyspepsia, all grades", "test system": "cancer patients", "setting": "oral, 600 mg twice daily, other expansion cohort, any causality", "measurement": "patients with adverse event", "value": "17%"}
